Measured values gathered from unrelated publications.
Numbers after ± are the reported error.
Target: mushroom tyrosinase

SMILES | assay | conditions | IC50
O=C1c2ccccc2C(=O)c2c1ccc1c2C(C(=O)NCc2ccccc2)C(=O)C1c1ccccc1 (stereo not drawn) | inhibitor | together with: L-DOPA substrate | 99.98 ± 0.01 µg/mL
COc1ccc(C2SCC(CO)S2)c(OC)c1 (stereo not drawn) | enzyme activity, inhibitor, dopachrome absorbance | together with: L-tyrosine | 27.9 ± 1.47 µM
COc1ccc(CSCc2ccc(OC)cc2)cc1 | – | together with: L-tyrosine | 40 µM
COc1ccc(C2SCC(CO)S2)cc1 (stereo not drawn) | enzyme activity, inhibitor, dopachrome absorbance | together with: L-tyrosine | 16.5 ± 2.36 µM
COc1ccc(NC(=O)C2C(=O)C(c3ccccc3)c3ccc4c(c32)C(=O)c2ccccc2C4=O)cc1 (stereo not drawn) | inhibitor | together with: L-DOPA substrate | 87.3 ± 1.84 µg/mL
c1ccc(CSCc2ccccc2)cc1 | – | together with: L-tyrosine | > 2400 µM
Cc1cc(O)cc2c1C(=O)c1c(cc3oc(=O)cc(-c4ccccc4)c3c1O)C2=O | enzyme activity | together with: L-DOPA | > 100 µg/mL
COc1ccc(C2SCC(CO)S2)cc1OC (stereo not drawn) | enzyme activity, inhibitor, dopachrome absorbance | together with: L-tyrosine | 17 ± 2.99 µM
COc1c2c(cc3oc(=O)cc(C)c13)C(=O)c1cc(C)cc(O)c1C2=O | enzyme activity | together with: L-DOPA | > 100 µg/mL
O=C(/C=C\c1ccc(O)cc1)NCCCCN(CCCNC(=O)/C=C/c1ccc(O)cc1)C(=O)/C=C\c1ccc(O)cc1 | enzyme activity, inhibitor | together with: L-DOPA | 13.6 µM
O=C1c2ccccc2C(=O)c2c1ccc1c2C(C(=O)Nc2ccccc2)C(=O)C1c1ccccc1 (stereo not drawn) | inhibitor | together with: L-DOPA substrate | 80.2 ± 1.36 µg/mL
COc1c2c(cc3oc(=O)cc(-c4ccccc4)c13)C(=O)c1cc(C)cc(O)c1C2=O | enzyme activity | together with: L-DOPA | > 100 µg/mL

A few entries again:
SMILES | assay | conditions | IC50
O=C1c2ccccc2C(=O)c2c1ccc1c2C(C(=O)Nc2ccccc2)C(=O)C1c1ccccc1 (stereo not drawn) | inhibitor | together with: L-DOPA substrate | 80.2 ± 1.36 µg/mL
COc1ccc(NC(=O)C2C(=O)C(c3ccccc3)c3ccc4c(c32)C(=O)c2ccccc2C4=O)cc1 (stereo not drawn) | inhibitor | together with: L-DOPA substrate | 87.3 ± 1.84 µg/mL
